Published values of several laboratories.
Lines come from different studies, so protocols differ. Values joined by “and” are separate records of one study, mostly repeats; a detail may differ. Values after ≈ are worked out from the molar mass of the structure shown.

`N=C(N)NCCC[C@@H]1NC(=O)[C@H](CCCNC(=N)N)NC(=O)[C@@H](CCCNC(=N)N)NC(=O)[C@@H](CCCNC(=N)N)NC(=O)[C@@H](C(c2ccccc2)c2ccccc2)NC(=O)[C@H](Cc2c[nH]c3ccccc23)NC(=O)[C@@H](C(c2ccccc2)c2ccccc2)NC1=O`: “reduction of viable cells” greater than 85% (Aspergillus fumigatus; Af 293; 4 x MIC, 8 h).
`c1ccc2c([C+](c3c[nH]c4ccccc34)c3c[nH]c4ccccc34)c[nH]c2c1` gave an IC50 of 7.6 µM (Bacteroides fragilis; microbial growth, absorbance).
For `O=c1c(-c2nc3ccccc3s2)cc2c(n1NS(=O)(=O)c1ccccc1)CCCCCC2`, “viral load reduction” read 0% (hepatitis C virus; qRT-PCR; Huh7.5, genotype 4; concentration not given).
For `CC1(C)[C@H](NC(=O)/C(=N\OCC(=O)N2CCC(C(=O)O)C2)c2nsc(N)n2)C(=O)N1OS(=O)(=O)O` (some centres unmarked), the MIC was 4 µg/mL (≈ 7.47 µM) (Serratia marcescens; agar dilution; ATCC 21074, susceptible).
`N=C(N)NCCC[C@@H]1NC(=O)[C@H](CCCNC(=N)N)NC(=O)[C@H](CCCNC(=N)N)NC(=O)[C@@H](CCCNC(=N)N)NC(=O)[C@H](Cc2ccc3ccccc3c2)NC(=O)[C@H](Cc2ccc3ccccc3c2)NC(=O)[C@H](Cc2ccc3ccccc3c2)NC1=O` gave an MIC of greater than 64 µg/mL (Aspergillus fumigatus; fungal growth).
`Cc1ccccc1/C=C/C(=O)N[C@@H](CO)C(=O)N[C@H](C(=O)N[C@H](Cc1ccccc1)C(=O)O)[C@@H](C)O` — result for MIC50: “inactive” (Mycobacterium avium; resazurin microtitre; 104; 4 days, 37 °C).
For `O=C1Nc2ccccc2C1(c1c[nH]c2ccccc12)c1c[nH]c2ccccc12`, the IC50 was greater than 50 µM (Parabacteroides distasonis; bacterial growth, inhibitor, OD600; anaerobic).
Under “air sac lesion score”, `C=C[C@]1(C)C[C@@H](OC(=O)CSc2ccc(NC(=O)c3ccco3)cc2)[C@]2(C)[C@H](C)CC[C@]3(CCC(=O)[C@H]32)[C@@H](C)[C@@H]1O` is recorded as 1 and 2 and 0 (Mycoplasma gallisepticum; infected chickens; intramuscular, 60 mg/kg daily x3, scale 0 to 4; direction not given).
`Cc1c(CN(C)C(=O)/C=C/c2cnc3c(c2)CC(N)C(=O)N3)oc2ccccc12` (centres unmarked) gave an MIC of 2 µg/mL (≈ 5.12 µM) (Escherichia coli; microbial growth, broth dilution; BAA2469; clinical isolate).
With `CCCC(C)Oc1cccc(NC(=O)c2cccnc2)c1` (centres unmarked) the MIC50 was 64 µg/mL (≈ 225 µM) (Aspergillus fumigatus; microbial growth, broth dilution; MF5668).
The IC50 of `CC(=O)C(C)(c1c[nH]c2ccccc12)c1c[nH]c2ccccc12` is reported as 38 µM (Bacteroides fragilis; microbial growth, absorbance).
For `O=C1C(O)=C([C@H]2CC[C@H](c3ccc(Cl)cc3)CC2)C(=O)c2ccccc21`, the EC50 was 2.07 µM (Toxoplasma gondii; bradyzoite growth; alkaline-induced bradyzoites).
`FC(F)(F)c1cccc(CNc2nc(NC3CCN(Cc4ccccc4)CC3)c3nc[nH]c3n2)c1`: “log2 fold change” -0.564 (Cryptococcus neoformans; RNA-seq, item: PIK1 (CNAG_07744) mRNA; 48 µg/mL, 3 h; reference: untreated wild type).
`CCOC(=O)c1cc(-c2nc3ccccc3s2)c(=O)n(NS(=O)(=O)c2ccccc2)c1N` — result for “viral load reduction”: 0% (hepatitis C virus; qRT-PCR; Huh7.5, genotype 4; concentration not given).
`COC1C=COC2(C)Oc3c(C)c(O)c4c(c3C2=O)C2=NC3(CCN(CC(C)C)CC3)NC2=C(NC(=O)C(C)=CC=CC(C)C(O)C(C)C(O)C(C)C(OC(=O)Nc2cccnn2)C1C)C4=O` (centres unmarked) has an MBC of 0.5 µM (≈ 0.463 µg/mL) (Mycobacteroides abscessus; ATCC 19977, caseum surrogate; 5 d, non-replicating).
For `C=C(NC(=O)c1csc(-c2nc3c(cc2O)-c2nc(cs2)C(=O)NC(C(C)O)C(=O)NC(=C(C)OC)c2nc(cs2)C(=O)NC2c4nc(cs4)C(=O)NC(COC(=O)c4c5c6c(cccc6n4O)COC(=O)C(OC4CC(C)(O)C(N(C)C)C(C)O4)C2OC5)c2nc-3cs2)n1)C(N)=O` (centres unmarked), the ED50 was 0.73 mg/kg (Staphylococcus haemolyticus; mouse systemic infection; intravenous; survival).
For `CC(C)(C)NCC(SS(=O)(=O)O)c1ccccc1` (centres unmarked), the spleen weight was 0.17 g and 0.245 g and 0.24 g and 0.2 g and 0.37 g (Schistosoma mansoni; Swiss Webster mouse, infected; oral, 200 mg/kg daily x4, 57 days p.i., dosed from day 7 p.i.).
`CC(C)CS(=O)(=O)N[C@H]1CC[C@H](Nc2ncc3c(N4CCOCC4)n[nH]c3n2)CC1` gave an EC50 of 0.055 µM (Leishmania donovani; parasite growth; amastigote).
With `CC1C=CC=CC(C)C2C=CC3CC(C)(O)C(Cl)C(C)C3C2C(=O)C(Cl)(Cl)C(=O)C(C)C(=O)O1` (centres unmarked) the MIC was 0.1 µg/mL (≈ 0.188 µM) (Staphylococcus aureus; MSSA clinical isolate; resistant: PEN,CLI,ERY).
`CNCc1ccc2c(c1)C[C@H](CNC(=N)N)[C@H]2NC(=O)C(=O)Nc1ccc(Cl)c(F)c1` has an IC80 of 14.6 µM (HIV-1; viral infection; TZM-bl, CRF02_AG 263-8 Env pseudovirus).

A few entries again:
`COC1C=COC2(C)Oc3c(C)c(O)c4c(c3C2=O)C2=NC3(CCN(CC(C)C)CC3)NC2=C(NC(=O)C(C)=CC=CC(C)C(O)C(C)C(O)C(C)C(OC(=O)Nc2cccnn2)C1C)C4=O` (centres unmarked) has an MBC of 0.5 µM (≈ 0.463 µg/mL) (Mycobacteroides abscessus; ATCC 19977, caseum surrogate; 5 d, non-replicating).
`Cc1c(CN(C)C(=O)/C=C/c2cnc3c(c2)CC(N)C(=O)N3)oc2ccccc12` (centres unmarked) gave an MIC of 2 µg/mL (≈ 5.12 µM) (Escherichia coli; microbial growth, broth dilution; BAA2469; clinical isolate).
`Cc1ccccc1/C=C/C(=O)N[C@@H](CO)C(=O)N[C@H](C(=O)N[C@H](Cc1ccccc1)C(=O)O)[C@@H](C)O` — result for MIC50: “inactive” (Mycobacterium avium; resazurin microtitre; 104; 4 days, 37 °C).
